Assay results gathered from unrelated publications.
Numbered parts are unrelated; each lists some results of a single study.
Chain of UniProt Q6PHR2 (whole entry, looked up): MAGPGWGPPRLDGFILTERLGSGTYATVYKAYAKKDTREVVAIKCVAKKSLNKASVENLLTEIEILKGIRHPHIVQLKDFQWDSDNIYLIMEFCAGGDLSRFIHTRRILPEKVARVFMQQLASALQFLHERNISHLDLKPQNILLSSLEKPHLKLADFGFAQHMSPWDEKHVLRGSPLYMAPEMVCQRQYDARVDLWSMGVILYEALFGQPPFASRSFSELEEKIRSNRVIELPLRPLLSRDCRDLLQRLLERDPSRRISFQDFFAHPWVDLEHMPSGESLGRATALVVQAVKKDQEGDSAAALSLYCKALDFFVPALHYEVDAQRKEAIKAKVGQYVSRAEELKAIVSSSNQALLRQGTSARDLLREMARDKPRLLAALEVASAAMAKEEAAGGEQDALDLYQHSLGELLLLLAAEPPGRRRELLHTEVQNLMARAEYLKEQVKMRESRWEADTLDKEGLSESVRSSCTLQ
Chain of UniProt P42336 (whole entry, unmodified, looked up): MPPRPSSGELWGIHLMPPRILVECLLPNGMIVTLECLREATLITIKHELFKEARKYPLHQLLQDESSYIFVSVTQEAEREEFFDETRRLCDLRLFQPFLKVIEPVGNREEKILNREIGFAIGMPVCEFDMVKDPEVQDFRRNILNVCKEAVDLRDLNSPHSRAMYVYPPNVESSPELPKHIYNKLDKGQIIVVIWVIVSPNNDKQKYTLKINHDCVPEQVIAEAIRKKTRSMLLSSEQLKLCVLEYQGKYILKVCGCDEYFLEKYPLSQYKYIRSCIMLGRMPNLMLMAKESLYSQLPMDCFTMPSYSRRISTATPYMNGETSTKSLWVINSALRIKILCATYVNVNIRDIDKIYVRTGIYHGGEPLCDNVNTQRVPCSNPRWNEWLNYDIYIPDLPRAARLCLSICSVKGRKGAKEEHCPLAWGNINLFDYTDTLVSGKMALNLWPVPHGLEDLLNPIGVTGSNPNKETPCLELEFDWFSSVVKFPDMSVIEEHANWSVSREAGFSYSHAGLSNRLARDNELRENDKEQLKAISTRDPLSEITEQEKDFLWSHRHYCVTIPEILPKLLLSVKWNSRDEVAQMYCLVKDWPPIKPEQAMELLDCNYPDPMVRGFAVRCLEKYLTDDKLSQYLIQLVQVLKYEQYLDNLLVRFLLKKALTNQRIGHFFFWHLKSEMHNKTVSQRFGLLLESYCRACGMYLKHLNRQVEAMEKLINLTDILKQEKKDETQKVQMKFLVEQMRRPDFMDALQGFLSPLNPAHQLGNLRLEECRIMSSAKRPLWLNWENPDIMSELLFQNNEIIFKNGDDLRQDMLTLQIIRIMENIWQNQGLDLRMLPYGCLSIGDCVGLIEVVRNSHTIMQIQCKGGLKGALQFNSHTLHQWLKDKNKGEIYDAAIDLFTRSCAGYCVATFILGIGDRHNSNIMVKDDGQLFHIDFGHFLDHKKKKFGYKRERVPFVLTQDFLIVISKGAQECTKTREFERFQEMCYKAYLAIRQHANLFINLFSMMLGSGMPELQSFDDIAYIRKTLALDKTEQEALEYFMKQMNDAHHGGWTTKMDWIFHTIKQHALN
Chain of UniProt O14757 (whole entry, looked up): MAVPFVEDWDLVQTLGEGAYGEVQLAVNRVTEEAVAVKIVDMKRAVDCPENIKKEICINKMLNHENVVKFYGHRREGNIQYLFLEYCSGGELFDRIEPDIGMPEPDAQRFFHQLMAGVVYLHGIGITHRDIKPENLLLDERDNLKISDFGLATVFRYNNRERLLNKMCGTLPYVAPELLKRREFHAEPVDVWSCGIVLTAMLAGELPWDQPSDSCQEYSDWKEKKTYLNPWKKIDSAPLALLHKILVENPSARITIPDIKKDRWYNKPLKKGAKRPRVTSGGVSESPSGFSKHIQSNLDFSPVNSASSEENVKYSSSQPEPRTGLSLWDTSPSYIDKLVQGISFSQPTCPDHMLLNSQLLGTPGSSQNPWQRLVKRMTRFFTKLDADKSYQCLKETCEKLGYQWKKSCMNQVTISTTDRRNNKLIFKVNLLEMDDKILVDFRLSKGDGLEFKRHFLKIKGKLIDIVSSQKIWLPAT
Chain of UniProt P41743 (whole entry, looked up): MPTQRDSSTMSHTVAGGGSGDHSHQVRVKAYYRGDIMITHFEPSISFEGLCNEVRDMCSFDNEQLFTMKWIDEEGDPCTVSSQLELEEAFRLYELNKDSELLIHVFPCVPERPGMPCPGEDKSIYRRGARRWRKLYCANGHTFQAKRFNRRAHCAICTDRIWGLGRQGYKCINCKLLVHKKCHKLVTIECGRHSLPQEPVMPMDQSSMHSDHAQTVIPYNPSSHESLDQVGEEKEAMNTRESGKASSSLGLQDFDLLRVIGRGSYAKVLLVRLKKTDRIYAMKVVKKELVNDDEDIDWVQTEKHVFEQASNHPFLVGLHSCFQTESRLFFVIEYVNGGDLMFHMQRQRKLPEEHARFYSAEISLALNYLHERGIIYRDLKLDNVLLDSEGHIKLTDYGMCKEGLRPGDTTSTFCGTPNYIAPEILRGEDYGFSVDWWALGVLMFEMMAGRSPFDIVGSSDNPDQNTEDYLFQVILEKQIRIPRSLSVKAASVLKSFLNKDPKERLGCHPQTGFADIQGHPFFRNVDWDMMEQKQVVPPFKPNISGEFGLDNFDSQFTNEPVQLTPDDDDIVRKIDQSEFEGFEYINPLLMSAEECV
Chain of UniProt Q13523 (whole entry, looked up): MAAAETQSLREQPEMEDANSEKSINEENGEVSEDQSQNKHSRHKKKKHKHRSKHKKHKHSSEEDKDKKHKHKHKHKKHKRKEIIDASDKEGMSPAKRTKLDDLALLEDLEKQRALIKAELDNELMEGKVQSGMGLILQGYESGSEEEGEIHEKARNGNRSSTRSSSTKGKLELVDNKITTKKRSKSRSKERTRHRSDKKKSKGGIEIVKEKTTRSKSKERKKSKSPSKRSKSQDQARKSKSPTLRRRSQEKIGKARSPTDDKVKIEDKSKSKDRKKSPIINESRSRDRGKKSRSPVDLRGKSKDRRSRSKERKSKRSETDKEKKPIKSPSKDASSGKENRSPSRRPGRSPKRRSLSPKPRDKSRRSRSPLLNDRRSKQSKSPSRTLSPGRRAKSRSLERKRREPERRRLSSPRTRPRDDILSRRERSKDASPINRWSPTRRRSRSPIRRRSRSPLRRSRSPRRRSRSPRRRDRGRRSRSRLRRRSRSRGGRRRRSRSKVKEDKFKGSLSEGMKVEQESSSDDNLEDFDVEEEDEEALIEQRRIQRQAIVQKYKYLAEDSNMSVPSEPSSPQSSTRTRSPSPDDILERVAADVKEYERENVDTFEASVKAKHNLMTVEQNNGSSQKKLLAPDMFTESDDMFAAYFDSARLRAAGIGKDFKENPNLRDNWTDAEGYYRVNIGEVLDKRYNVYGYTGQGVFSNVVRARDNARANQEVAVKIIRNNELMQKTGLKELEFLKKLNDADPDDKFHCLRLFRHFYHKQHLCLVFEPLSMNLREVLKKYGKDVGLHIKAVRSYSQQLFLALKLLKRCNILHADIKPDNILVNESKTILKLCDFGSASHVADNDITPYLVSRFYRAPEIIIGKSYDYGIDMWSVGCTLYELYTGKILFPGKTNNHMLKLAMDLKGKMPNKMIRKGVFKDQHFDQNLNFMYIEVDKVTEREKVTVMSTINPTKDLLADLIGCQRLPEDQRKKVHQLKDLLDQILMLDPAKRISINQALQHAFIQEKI
Chain of UniProt Q8WU08 (whole entry, looked up): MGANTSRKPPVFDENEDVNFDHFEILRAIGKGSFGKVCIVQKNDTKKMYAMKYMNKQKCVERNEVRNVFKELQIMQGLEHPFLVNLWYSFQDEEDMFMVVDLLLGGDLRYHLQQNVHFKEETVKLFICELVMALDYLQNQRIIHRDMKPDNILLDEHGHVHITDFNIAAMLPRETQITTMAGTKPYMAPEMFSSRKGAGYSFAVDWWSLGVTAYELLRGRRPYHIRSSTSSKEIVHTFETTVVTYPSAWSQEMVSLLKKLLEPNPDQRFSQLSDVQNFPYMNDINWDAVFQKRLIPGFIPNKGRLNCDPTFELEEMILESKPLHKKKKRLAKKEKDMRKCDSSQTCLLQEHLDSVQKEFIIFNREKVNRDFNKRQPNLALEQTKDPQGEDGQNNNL

Sample 1
Structure (SMILES): O=C(N[C@H]1CCCCC/C=C\C2C[C@@]2(C(=O)O)NC(=O)[C@@H]2C[C@@H](Oc3ccncc3)CN2C1=O)OC1CCCC1 (stereo partly shown)
Technique: competition with immobilised ligand
Concentration: 1 µM
Endpoint: remaining binding
target = PIK3CG (Homo sapiens, UniProt P48736); effect on = binding; value = 78%
target = SRPK2 (Homo sapiens, UniProt P78362); effect on = binding; value = 64%
target = Tyrosine-protein kinase JAK1, JH1 (JAK1, Homo sapiens, UniProt P23458); effect on = binding; value = 96%
target = ULK3 (Homo sapiens, UniProt Q6PHR2); effect on = binding; value = 82%
target = CHEK1 (Homo sapiens, UniProt O14757); effect on = binding; value = 79%
target = LCK (Homo sapiens, UniProt P06239); effect on = binding; value = 100%
target = PDGFRA (Homo sapiens, UniProt P16234); effect on = cell-free assay; value = 99%
target = FRK (Homo sapiens, UniProt P42685); effect on = cell-free assay; value = 100%
target = Insulin receptor (INSR, Homo sapiens, UniProt P06213); effect on = cell-free assay; value = 100%
target = PRKCI (Homo sapiens, UniProt P41743); effect on = cell-free assay; value = 100%
target = Ribosomal protein S6 kinase alpha-2, N-terminal kinase domain (RPS6KA2, Homo sapiens, UniProt Q15349); effect on = binding; value = 99%
target = Cyclin-dependent kinase 4, with cyclin D1 (CDK4, Homo sapiens, UniProt P11802); effect on = binding; value = 100%
target = PIK3CA (Homo sapiens, UniProt P42336, C420R); effect on = binding; value = 100%
target = CDKL5 (Homo sapiens, UniProt O76039); effect on = binding; value = 83%
target = STK32A (Homo sapiens, UniProt Q8WU08); effect on = binding; value = 89%
target = TRPM6 (Homo sapiens, UniProt Q9BX84); effect on = cell-free assay; value = 98%
target = MAP4K1 (Homo sapiens, UniProt Q92918); effect on = binding; value = 93%
target = PRPF4B (Homo sapiens, UniProt Q13523); effect on = binding; value = 92%
target = SLK (Homo sapiens, UniProt Q9H2G2); effect on = binding; value = 100%
target = MAP3K10 (Homo sapiens, UniProt Q02779); effect on = binding; value = 100%
target = MAP3K5 (Homo sapiens, UniProt Q99683); effect on = binding; value = 91%

Sample 2
Cell line: A-375
Concentration: 100 µM
Time: 18 h
Endpoint: viability
Structure (SMILES) = NCCCNCCSP(=O)(O)O; value = 103%
Structure (SMILES) = COc1cc2c(cc1O)CC[C@@H]1[C@@H]2CC[C@]2(C)[C@@H](O)CC[C@@H]12; value = 65.7%
Structure (SMILES) = CCCCOc1ccc(CC(=O)NO)cc1; value = 98%
Structure (SMILES) = CC[C@H](Nc1ncnc2[nH]cnc12)c1nc2cccc(F)c2c(=O)n1-c1ccccc1; value = 93.2%
Structure (SMILES) = COc1ccnc(C[S+]([O-])c2nc3ccc(OC(F)F)cc3[nH]2)c1OC (stereo not shown); value = 81.9%
Structure (SMILES) = CSCC1CN(/N=C/c2ccc([N+](=O)[O-])o2)C(=O)O1 (stereo not shown); value = 83.8%
Structure (SMILES) = CN(C)CCOC(c1ccc(Cl)cc1)c1ccccn1 (stereo not shown); value = 102%

Sample 3
Species: mouse
Sample: microsomes or S9
Concentration: 2 µM
Time: 0.5 h
Endpoint: remaining compound
SMILES = COC(=O)C1(C(=O)OC)C(CC(=O)c2ccc(C)cc2)c2cc(N(C)C)ccc2C(c2ccccc2)N1S(=O)(=O)c1ccc(C)cc1 (stereo not shown); value = 5.37%
SMILES = COC(=O)[C@@H](O)c1c(C)nc2[nH]c3c(c2c1-c1ccc(Cl)cc1)CCCC3; value = 35.3%
SMILES = CCCC[S+]([O-])c1[nH]c2c(C(C)C)cccc2c(=O)c1C(C)=O (stereo not shown); value = 0.498%
SMILES = COc1cc(OC)cc(OC/C(=C\c2ccc(C(=O)O)cc2)CNc2cnc3ccccc3c2)c1; value = 26.8%

Sample 4
SMILES: C=CCc1ccc(O)c(-c2cc(CC=C)ccc2O)c1
Target: Anoctamin-1 (ANO1, Homo sapiens, UniProt Q5XXA6, del476-501)
Chain of UniProt Q5XXA6 (whole entry, unmodified, looked up): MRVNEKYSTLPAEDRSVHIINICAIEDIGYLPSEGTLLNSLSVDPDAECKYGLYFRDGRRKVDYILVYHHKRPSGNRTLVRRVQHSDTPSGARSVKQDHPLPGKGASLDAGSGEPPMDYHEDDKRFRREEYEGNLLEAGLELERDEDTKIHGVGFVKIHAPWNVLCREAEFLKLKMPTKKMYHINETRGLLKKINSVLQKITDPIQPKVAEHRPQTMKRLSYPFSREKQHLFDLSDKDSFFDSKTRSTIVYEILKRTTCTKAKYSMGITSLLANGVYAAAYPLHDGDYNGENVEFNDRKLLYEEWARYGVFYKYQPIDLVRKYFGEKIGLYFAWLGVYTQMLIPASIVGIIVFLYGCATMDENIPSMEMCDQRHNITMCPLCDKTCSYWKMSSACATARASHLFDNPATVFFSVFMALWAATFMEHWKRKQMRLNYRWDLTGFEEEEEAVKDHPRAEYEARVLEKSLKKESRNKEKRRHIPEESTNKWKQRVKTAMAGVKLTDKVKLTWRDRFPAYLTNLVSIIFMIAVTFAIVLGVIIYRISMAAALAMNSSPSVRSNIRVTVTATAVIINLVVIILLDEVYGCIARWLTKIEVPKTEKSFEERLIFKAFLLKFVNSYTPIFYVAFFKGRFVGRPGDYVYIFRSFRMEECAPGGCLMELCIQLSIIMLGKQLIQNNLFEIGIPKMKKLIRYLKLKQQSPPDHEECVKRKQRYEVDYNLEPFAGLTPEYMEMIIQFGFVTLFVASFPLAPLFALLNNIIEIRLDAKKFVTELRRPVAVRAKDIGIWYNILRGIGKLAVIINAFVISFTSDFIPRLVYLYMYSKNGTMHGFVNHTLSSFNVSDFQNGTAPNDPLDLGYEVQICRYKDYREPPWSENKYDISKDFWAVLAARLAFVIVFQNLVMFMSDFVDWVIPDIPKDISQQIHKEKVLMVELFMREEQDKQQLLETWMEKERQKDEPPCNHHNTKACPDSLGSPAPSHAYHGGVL
Effect on: chloride current
Technique: whole-cell patch clamp
Endpoint: normalised current
concentration = 3 µM; setting = -40 mV, 300 nM free Ca2+; value = -0.0725
concentration = 10 µM; setting = 100 mV, 300 nM free Ca2+; added = honokiol and magnolol 3 µM; value = 0.562
concentration = 1 µM; setting = 20 mV, 300 nM free Ca2+; value = 0.0754

Sample 5
Organism: Sarcocystis neurona
Effect on: parasite activity
Concentration: 10 µM
Time: 96 h
Endpoint: activity class
SMILES = COC(=O)C1=C(C)NC(C)=C(C(=O)OCC(C)C)C1c1ccccc1[N+](=O)[O-] (stereo not shown); value = inactive
SMILES = Cc1ncc([N+](=O)[O-])n1CC(O)CCl (stereo not shown); value = inactive
SMILES = CCCNC(=O)NS(=O)(=O)c1ccc(Cl)cc1; value = inactive
SMILES = CN(C)[C@@H]1C(O)=C(C(N)=O)C(=O)[C@@]2(O)C(O)=C3C(=O)c4c(O)cccc4[C@@](C)(O)[C@H]3C[C@@H]12; value = inactive
SMILES = C#C[C@]1(O)CC[C@H]2[C@@H]3CCC4=CC(=O)CC[C@@H]4[C@H]3CC[C@@]21C; value = inactive

Sample 6
SMILES: CC(C)n1cnc(-c2ccc(F)cc2)c1-c1ncc(C(=O)Nc2ccc(N3CCN(C)CC3)cc2)[nH]1
Technique: phase 2a trial
Species: idiopathic pulmonary fibrosis patients
Endpoint: adverse event incidence
refers to = chronic gastritis; dose = dose not given; setting = grade 4, all arms pooled; value = 0%
refers to = QRS axis abnormal; dose = 60 mg once daily; setting = grade 2; value = 0%
refers to = gingivitis; dose = 60 mg once daily; setting = grade 1; value = 0%
refers to = liver injury; dose = 60 mg once daily; setting = grade 4; value = 0%
refers to = immunoglobulins increased; dose = 60 mg once daily; setting = grade 4; value = 0%
refers to = infection; dose = 60 mg once daily; setting = grade 5; value = 0%
